Results gathered from unrelated publications.
Every numbered part comes from another study and shows a few of its results, in no order.

Block 1 — method: protein-binding microarray; molecule type: double-stranded DNA, one strand shown; sample: in vitro; concentration: not given; direction: higher = stronger binding
Target: Transcriptional repressor CTCF (CTCF, Homo sapiens, UniProt P49711, residues 1-727, full length assumed)
Chain of UniProt P49711 (whole entry, looked up): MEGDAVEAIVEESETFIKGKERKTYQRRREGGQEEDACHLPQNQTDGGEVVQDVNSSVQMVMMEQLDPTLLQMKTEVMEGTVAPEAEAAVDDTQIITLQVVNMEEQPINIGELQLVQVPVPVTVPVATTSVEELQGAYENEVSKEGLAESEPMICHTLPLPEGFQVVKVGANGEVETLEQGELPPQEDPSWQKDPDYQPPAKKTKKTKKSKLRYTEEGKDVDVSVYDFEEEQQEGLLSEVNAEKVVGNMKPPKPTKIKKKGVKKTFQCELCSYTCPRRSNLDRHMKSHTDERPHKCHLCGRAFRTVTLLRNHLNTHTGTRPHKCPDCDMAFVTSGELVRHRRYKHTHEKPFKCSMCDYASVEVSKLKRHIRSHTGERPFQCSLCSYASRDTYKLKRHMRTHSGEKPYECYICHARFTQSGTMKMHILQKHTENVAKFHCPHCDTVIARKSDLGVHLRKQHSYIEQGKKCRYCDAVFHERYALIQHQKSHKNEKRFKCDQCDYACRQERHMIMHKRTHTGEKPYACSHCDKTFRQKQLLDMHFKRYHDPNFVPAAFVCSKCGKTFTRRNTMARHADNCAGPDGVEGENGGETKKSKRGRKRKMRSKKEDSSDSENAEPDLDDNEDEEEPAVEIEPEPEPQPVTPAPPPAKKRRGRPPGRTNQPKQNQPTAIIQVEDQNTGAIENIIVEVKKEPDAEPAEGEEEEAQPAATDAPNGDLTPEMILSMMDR
Setting: k-mer, scored over probes, only values ≥0.25
| Oligonucleotide | E-score |
| --- | --- |
| CTATTTGA | 0.301 |
| GCGCCTCC | 0.254 |
| CGCGCCAC | 0.33 |
| ATTTAAAC | 0.303 |
| GATTGTTA | 0.255 |
| GTATTTTA | 0.263 |
| AGTGCGCA | 0.337 |
| AATATAAC | 0.305 |

Block 2 — method: RNA Bind-n-Seq; molecule type: RNA; sample: in vitro; concentration: 365 nM; baseline: no-protein control; direction: higher = stronger binding
Target: RNA binding protein fox-1 homolog 2, RRM domain, GST-SBP tag (RBFOX2, Homo sapiens, UniProt O43251-10, residues 100-194)
Setting: natural RNA segment, single round, ends assumed
Constant ends, left off below: GGGAGUUCUACAGUCCGACGAUC … UGGAAUUCUCGGGUGCCAA
| Oligonucleotide | RBNS enrichment (R) |
| --- | --- |
| AUUUGGUACUCAGAAAAGAACUGUUUAUACCACUCACCUUUCUCCCAGCAUGUACUCACUGUGGGCAGAUGCACCAAUACAUGGUAAUCCUCUUACUCAUUUUAAGACGU | 4.73 |
| UAAAAUCAUUACAAUAAAAACCCAAAUUGGAACUAUCUCCUCCCUUUACCCCUUUCCCUUAAUUCCUAUUCUGAUGACACUUUGGACAUGAAUUCAAGGGGCAGAUGAAU | 0.457 |
| AACAACAAUCAUGAUAAUUAAAUUAAAACACUAGUUUGUUCACUUGUAGGACUGCAGUUCUGAAUUUUGGGUUAAAGGUUUUGGCUGCUGUAAGAAUGUGAAUUUGAAUG | 2.56 |
| GGAGGGGCAACACUGUUAGAUGUGAGGAAAGGAAGUGCCAAAAAUGCCUGGACAGAUGGCUUGUCCCAAGGCCAGGACACACACUUUAAAAUCCAACAUUCACCUAAGCA | 1.23 |
| UCUUCCCCAAAAUUGAUCACUCCGCCUUCUCCUGGGCUCCCGUAGCACACUAUAACAUCUGCUGGAGUGUUGCUGUUGCACCAUACUUUCUUGUACAUUUGUGUCUCCCU | 0.617 |
| CCUCAGGUGAUCUGCCCACCUCAGCCUCCCGAAGUGCUGGGAUUACAGGUGUGAGCCACCGCACCCGGCUCUAUUUAGCUUUUUAAAAAUUAUUUCCUUUCAAGGGCCCU | 0.461 |
| GUCAGGUCAUUAUUUGCUGUAUCAAAGUUCCAGUGGCUUCAGAAAUCAUAGCAUCCCAUGGUUUUGUGGUAUCUGGGUUUGUGUAAUGUUGUUGACACCUGUAUUUAAUG | 1.63 |
| CCUCCUGCUGCCUGCGUGGGAGAAAGUAGGGGAGGAGUCCAAACCAGGCCACCAGAGAUGGUUGAGAUAAAUGACAAAUCUGGUGGAAGUCAGACAUGGCUCUAAAGAGC | 0.483 |

Block 3 — action: inhibitor; concentration: 20 µM
Target: Replicase polyprotein 1ab, nsp13 helicase (rep, Severe acute respiratory syndrome coronavirus 2, UniProt P0DTD1)
| Structure (SMILES) | inhibition |
| --- | --- |
| CC(C)C[C@H](NC(=O)CNC(=O)c1cc(Cl)ccc1Cl)B1OC(=O)C(CC(=O)O)(CC(=O)O)O1 | 1.49% |
| C/C=C/C/C=C/CCC(=O)[C@H]1O[C@H]1C(N)=O | -0.14% |
| O=C(C1CCCCC1)N1CC(=O)N2CCc3ccccc3C2C1 (stereo not drawn) | 5.64% |
| Oc1ccc(Cl)cc1Cc1cc(Cl)ccc1O | -1.19% |
| O=Cc1cn(Cc2ccc(Cl)cc2)c2ccccc12 | 1.96% |
| CCCCCCOc1ccccc1C(N)=O | 2.9% |
| CN1CCN(c2ccc(C(=O)Nc3n[nH]c4ccc(Cc5cc(F)cc(F)c5)cc34)c(NC3CCOCC3)c2)CC1 | 5.87% |
| CNC1CCCN(c2c(F)cc3c(=O)c(C(=O)O)cn(C4CC4)c3c2OC)C1 (stereo not drawn) | 9.03% |
| Nc1ccccc1S(N)(=O)=O | -1.03% |
| CC(C)(C(=O)NCC(F)(F)C(F)(F)F)C(=O)N[C@@H]1C(=O)Nc2ccccc2-c2ccccc21 | 5.77% |
| C[C@@]1(O)[C@H](O)[C@@H](CO)O[C@H]1n1cnc2c(=O)[nH]c(N)nc21 | 5.42% |
| Cc1cnc(CNC(=O)c2c(=O)c3ccc(N4CCCN(C)CC4)nc3n3c2sc2ccccc23)cn1 | 7.79% |
| Cc1[nH]c2ccccc2c1CCNCc1ccc(/C=C/C(=O)NO)cc1 | 8.21% |
| C[C@H](CCC(=O)O)[C@H]1CC[C@H]2[C@@H]3C[C@H](O)[C@@H]4C[C@H](O)CC[C@]4(C)[C@H]3CC[C@]12C | 5.92% |
| CN1C[C@@H](NS(=O)(=O)N(C)C)C[C@@H]2c3cccc4c3c(cn4C)C[C@H]21 | 4.15% |
| CS(=O)(=O)c1ccc(Oc2cc(F)cc(C#N)c2)c2c1[C@H](O)C(F)(F)C2 | 2.49% |
| COC(=O)CCSCc1ccc(-c2onc(C)c2NC(=O)OC(C)c2ccccc2Cl)cc1 (stereo not drawn) | 0.2% |
| CCN(CC)C(C)CN1c2ccccc2Sc2ccccc21 (stereo not drawn) | 2.19% |
| CC[C@@]1(O)C(=O)OCc2c1cc1n(c2=O)Cc2c-1nc1cc(F)c(C)c3c1c2[C@@H](N)CC3 | 7.46% |
| COC(=O)C1=C(C)NC(C)=C([N+](=O)[O-])[C@@H]1c1ccccc1C(F)(F)F (racemic) | 19.1% |
| N[C@@H]1CCN(O)C1=O | 4.89% |
| C[C@H](N)Cc1cccc(O)c1 | -1.13% |
| CC[C@H]1OC(=O)[C@H](C)[C@@H](O[C@H]2C[C@@](C)(OC)[C@@H](O)[C@H](C)O2)[C@H](C)[C@@H](O[C@@H]2O[C@H](C)C[C@H](N(C)C)[C@H]2O)[C@](C)(OC)C[C@@H](C)C(=O)[C@H](C)[C@@H](O)[C@]1(C)O | 2.77% |
| O=C(O)c1ccccc1Nc1cc(Cl)ccc1C(=O)O | 3.06% |
| C[C@@H]1COCCN1c1cc(=O)n2c(n1)N(Cc1cncc(Cl)c1)[C@H](C(F)(F)F)CC2 | 4.57% |

Block 4 — cell line: HEK-293T; observed: pseudovirus infection; method: FDA-approved drug library screen; organism: VSV pseudotyped with SARS-CoV-2 spike; concentration: 10 µM; time: 16 h; baseline: vehicle-treated
| SMILES | GFP-positive cells |
| --- | --- |
| CN1CCC[C@@H]1Cc1c[nH]c2ccc(CCS(=O)(=O)c3ccccc3)cc12 | 103% |
| CCOC(=O)[C@H](CCc1ccccc1)N[C@@H](C)C(=O)N1Cc2ccccc2C[C@H]1C(=O)O | 77% |
| Cc1cn[nH]c1 | 97.3% |
| NC(=O)c1cnccn1 | 86.7% |

Block 5 — method: protein-binding microarray; molecule type: double-stranded DNA, one strand shown; sample: in vitro; concentration: 250 nM; setting: 60-bp whole probe; together with: salmon DNA 0.4 mg/ml; baseline: random background probes; direction: higher = stronger binding; constant ends, left off below: GCCTAGCAC … GTCTTGATTCGCTTGACGCTGCTG
Target: Interferon regulatory factor 5, full length, phosphomimetic (IRF5, Homo sapiens, UniProt Q13568-2, residues 1-514, K96S/S451D/S453D/S456D/S462D)
| Oligonucleotide | log fluorescence |
| --- | --- |
| GACGATTTCACTCTCGAGACGTGCTAG | 1.96 z-score |
| GACGGTTTCCTTTCCCTCACGTGCTAG | 1.78 z-score |
| GACTAACTGAGTATCGAGACGTGCTAG | 1.93 z-score |
| GACGGATTCCTACTGCTGACGTGCTAG | -0.156 z-score |
| GACGGACTCGGGTATCGGGACGTGCTA | 0.103 z-score |
| TTAGGACTCCTTTTCCTTTAGTGCTAG | 0.201 z-score |
| TCATTTTTTTTTCTGATACTGTGCTAG | 1.41 z-score |
| GACGGTTTTGACTATCGGGACGTGCTA | 1.72 z-score |

Mixed results
| Compound | target | test | setting | endpoint | value |
| --- | --- | --- | --- | --- | --- |
| O=C(O)c1c(Cl)c(Cl)c(Cl)c(Cl)c1-c1c2cc(I)c(=O)c(I)c-2oc2c(I)c(O)c(I)cc12 | Replicase polyprotein 1ab, main protease (rep, Severe acute respiratory syndrome coronavirus 2, UniProt P0DTD1) | enzyme activity, inhibitor | 20 µM, hit confirmation | inhibition | 122% |

A few entries again (block 5):
| Oligonucleotide | log fluorescence |
| --- | --- |
| GACGATTTCACTCTCGAGACGTGCTAG | 1.96 z-score |
| GACGGTTTCCTTTCCCTCACGTGCTAG | 1.78 z-score |
| GACTAACTGAGTATCGAGACGTGCTAG | 1.93 z-score |
| GACGGATTCCTACTGCTGACGTGCTAG | -0.156 z-score |
| GACGGACTCGGGTATCGGGACGTGCTA | 0.103 z-score |
| TTAGGACTCCTTTTCCTTTAGTGCTAG | 0.201 z-score |
| TCATTTTTTTTTCTGATACTGTGCTAG | 1.41 z-score |
| GACGGTTTTGACTATCGGGACGTGCTA | 1.72 z-score |
